Measured values pooled from the literature.
Lines come from different studies, so protocols differ. ± marks the error that the study gave. In brackets after ≈: the same amount, converted by molar mass.

| Compound | target or system | test | test system | conditions | how to read | endpoint | result |
| --- | --- | --- | --- | --- | --- | --- | --- |
| CCOC(=O)C1=C(CN2CCC[C@H]2C(=O)Nc2cccc(B(O)O)c2)NC(c2nccs2)=N[C@@H]1c1ccc(F)cc1Br | hepatitis B virus |  | HepDES19 |  | reference: CC50 over EC50 | selectivity index | 1 |
| O=[N+]([O-])c1ccc(NC2CCNCC2)c(C(F)(F)F)c1 | Salmonella typhimurium | SOS/umu test | TA1535/pSK1002 | 0.008 mg/mL, 4 h, without S9, full range |  | survival | 125% |
| CCOC(=O)C1=C(CN2CCN(Cc3ccc(B4OC(C)(C)C(C)(C)O4)cc3)CC2)NC(c2nccs2)=NC1c1ccc(F)cc1Br (stereo not shown) | hepatitis B virus |  | HepDES19 |  | reference: CC50 over EC50 | selectivity index | 35 |
| Cc1cc(C(=O)NC(C)(C)COc2cccc3c2C(N)=NS(=O)(=O)N3)cc(C)n1 | Escherichia coli | Ames test, confirmatory | WP2 uvrA | 100 µg/plate | reference: solvent control | revertant ratio | 1 |
| CC(=O)N1CCC(C(=O)N2CCN3C(=O)c4cc(-c5ccccc5)ccc4NC(=O)C3C2)CC1 (stereo not shown) | Escherichia coli |  | WP2 uvrA | 15.8 µg/plate, with rat liver S9 | reference: vehicle | revertant fold increase | 0.9 |
| [Cl-].[Cl-].[Pt+2].[Ru+2].c1ccc(-c2nc3ccccc3nc2-c2ccccn2)nc1.c1cnc2c(c1)ccc1cccnc12.c1cnc2c(c1)ccc1cccnc12 | Danio rerio |  | embryos | 45 µM, 96 h |  | hatching rate | 36.7 ± 2.1% |
| O=c1cccc(O)c(O)c1O | hepatitis B virus |  | HepDES19 |  | reference: CC50 over EC50 | selectivity index | 2.73 |
| O=[N+]([O-])c1ccc(N2CCC(NCCC(O)c3ccc(F)c4ccccc34)CC2)c(C(F)(F)F)c1 (stereo not shown) | Salmonella typhimurium | SOS/umu test | TA1535/pSK1002 | 0.016 mg/mL, 4 h, without S9, full range |  | survival | 58.1% |
| [Cl-].[Cl-].[Pt+2].[Ru+2].c1ccc(-c2nc3cc4ccccc4cc3nc2-c2ccccn2)nc1.c1cnc2c(c1)ccc1cccnc12.c1cnc2c(c1)ccc1cccnc12 | Danio rerio |  | embryos | 90 µM, 72 h |  | hatching rate | 3.33 ± 2.9% |
| CNC(=O)c1c(N(C)N=O)ncn1C | Salmonella typhimurium | plate incorporation | TA98, water | 50 µg/plate, without S9 |  | revertant colonies per plate | 27.7 ± 7 |
| Cc1ccc2nc(C3CCCN(Cc4cccc(-c5cccnc5)c4)C3)[nH]c(=O)c2c1 (stereo not shown) | Vero-E6 | CellTiter-Glo ATP |  | 72 h, retest 8-point duplicates | reference: DMSO 0%, hyamine -100%, more negative, more toxic | maximum response | -8.21% |
| CCOC(=O)C1=C(CN2CCCC2C(=O)Nc2ccc(B3OC(C)(C)C(C)(C)O3)cc2)NC(c2nccs2)=NC1c1ccc(F)cc1Br (stereo not shown) | hepatitis B virus |  | HepDES19 |  | reference: CC50 over EC50 | selectivity index | 128 |
| COc1cccc(-c2n[nH]c(SCc3ccccn3)n2)c1OC | Escherichia coli | Ames test, preincubation | WP2 uvrA | 2.0 mg/plate, without S9 |  | revertant colonies per plate | 11 |
| [Cl-].[Cl-].[Pt+2].[Ru+2].c1ccc(-c2nccnc2-c2ccccn2)nc1.c1cnc2c(c1)ccc1cccnc12.c1cnc2c(c1)ccc1cccnc12 | Danio rerio |  | embryos | 45 µM, 0 h |  | survival rate | 100% |
| CC(Nc1nc(N2CCN(C)CC2)nc2ccccc12)c1ccccc1 (stereo not shown) | Vero-E6 | CellTiter-Glo ATP |  | 72 h, second round 5-point | reference: DMSO 0%, hyamine -100%, more negative, more toxic | maximum response | 0.252% |
| Fc1ccc(C2=CCNCC2)cc1 | Salmonella typhimurium | SOS/umu test | TA1535/pSK1002 | 0.5 mg/mL, 4 h, without S9, full range |  | survival | 98.8% |
| CCOC(=O)C1=C(CN2CCC[C@H]2C(=O)Nc2ccc(B(O)O)cc2)NC(c2nccs2)=N[C@@H]1c1ccc(F)cc1Br | hepatitis B virus |  | HepDES19 |  | reference: CC50 over EC50 | selectivity index | 1 |
| O=C(Nc1cc(F)c(F)c(F)c1)c1ccc(F)c(S(=O)(=O)NCc2cccc(B(O)O)c2)c1 | hepatitis B virus |  | HepAD38 |  | reference: CC50 over EC50 | selectivity index | 8.73 |
| CCOC(=O)C1=C(CN2CCC(C(=O)Nc3ccc(B4OC(C)(C)C(C)(C)O4)cc3)C2)NC(c2nccs2)=NC1c1ccc(F)cc1Br (stereo not shown) | hepatitis B virus |  | HepDES19 |  | reference: CC50 over EC50 | selectivity index | 34 |
| COc1ccnc(C(=O)N[C@H]2COC(=O)[C@H](Cc3ccccc3)[C@@H](OC(=O)C(C)C)[C@H](C)OC2=O)c1OCOC(=O)C(C)C | fish | mortality, geometric mean of 4 species |  | water exposure, flow-through, 96 h |  | LC50 | 3.82 ng/mL (≈ 6.21 nM) |
| CCOC(=O)C1=C(CN2CCN(Cc3cccc(B(O)O)c3)CC2)NC(c2nccs2)=NC1c1ccc(F)cc1Br (stereo not shown) | hepatitis B virus |  | HepDES19 |  | reference: CC50 over EC50 | selectivity index | 24 |
| O=[N+]([O-])c1ccc(N2CCN(CCC(O)c3ccc(F)cc3)CC2)c(C(F)(F)F)c1 (stereo not shown) | Salmonella typhimurium | genotoxicity, SOS/umu test | TA1535/pSK1002 | 0.002 mg/mL, 4 h, without S9, lower range |  | induction factor | 0.8 |
| CCOP(=S)(OCC)SCSCC | Oncorhynchus kisutch | sulfoxide formation, substrate | liver microsomes | 30 min, pH 7.6, freshwater-acclimated |  | Km | 5.95 ± 1.79 µM |
| OC(CCN1CC=C(c2ccc(F)cc2)CC1)c1ccc(F)c2ccccc12 (stereo not shown) | Salmonella typhimurium | genotoxicity, SOS/umu test | TA1535/pSK1002 | 0.031 mg/mL, 4 h, without S9, lower range |  | induction factor | 1.5 |
| N#C[C@@]1(n2ccc(N)nc2=O)O[C@H](CO)[C@@H](O)[C@H]1O | Salmonella typhimurium |  | TA98 | 100 µM, without S9 |  | viability | 85% |

Excerpt of the above:
| Compound | target or system | test | test system | conditions | how to read | endpoint | result |
| --- | --- | --- | --- | --- | --- | --- | --- |
| CCOC(=O)C1=C(CN2CCC[C@H]2C(=O)Nc2cccc(B(O)O)c2)NC(c2nccs2)=N[C@@H]1c1ccc(F)cc1Br | hepatitis B virus |  | HepDES19 |  | reference: CC50 over EC50 | selectivity index | 1 |
| Cc1ccc2nc(C3CCCN(Cc4cccc(-c5cccnc5)c4)C3)[nH]c(=O)c2c1 (stereo not shown) | Vero-E6 | CellTiter-Glo ATP |  | 72 h, retest 8-point duplicates | reference: DMSO 0%, hyamine -100%, more negative, more toxic | maximum response | -8.21% |
| [Cl-].[Cl-].[Pt+2].[Ru+2].c1ccc(-c2nccnc2-c2ccccn2)nc1.c1cnc2c(c1)ccc1cccnc12.c1cnc2c(c1)ccc1cccnc12 | Danio rerio |  | embryos | 45 µM, 0 h |  | survival rate | 100% |
